Measurements of several laboratories.
Numbers after ± are the reported error.

SMILES | test | system | setting | scale | quantity | result
CC(CCC(=O)NCC(=O)O)C1CCC2C3CCC4CC(OC5OC(C(=O)O)C(O)C(O)C5O)CCC4(C)C3CC(O)C12C (stereo not shown) | – | human, SLCO1B1 *14/*15, plasma | geometric mean, sex-adjusted | – | plasma concentration | 65.4 ng/mL
[11CH3]n1c(=O)n(CCCO)c(=O)c2c1nc(Oc1cccc(OC(F)(F)F)c1)n2Cc1ccc(Cl)cc1 | ex vivo biodistribution | Sprague Dawley rat, thymus | 30 min post injection | – | tracer uptake | 0.63 ± 0.06 %ID/g
CC[C@@H]1C[C@]1(NC(=O)[C@@H]1C[C@@]2(CN1C(=O)[C@@H](NC(=O)[C@@H](NC(=O)[C@@H]1CCCCN1C(C)C)C1CCCCC1)C(C)(C)C)C(C)(C)C21CCC1)C(=O)NS(=O)(=O)N1CCCC1 | measured: Pain | healthy human | oral, 50 mg, with: ritonavir 100 mg | – | subjects with adverse event | 0%
COC(=O)C[C@](O)(CCCC(C)(C)OC(C)=O)C(=O)O[C@@H]1C(OC)=C[C@]23CCCN2CCc2cc4c(cc2[C@H]13)OCO4 | – | CD1 mouse, kidney | oral, 1 mg/kg, 0.5 h | – | tissue concentration | 138 ng/mL
COc1cc2ncnc(Oc3cccc(N[11C](=O)Nc4cc(C(C)(C)C(F)(F)F)on4)c3)c2cc1OC | dynamic PET | female Balb/c nude mice, A375 xenograft, tumour | intravenous, 0 min | – | tumour uptake | 0.19 ± 0.03 %ID/g
CC(C)C[C@@H]1NC(=O)[C@@H](Cc2c[nH]c3ccccc23)NC(=O)[C@H](CCCNC(=N)N)NC(=O)[C@@H](CCC(=O)O)NC(=O)[C@H](CCC(N)=O)NC(=O)[C@@H](CCC(=O)O)NC(=O)[C@H](CCCNC(=N)N)NC(=O)[C@@H](Cc2c[nH]c3ccccc23)NC1=O | haemolysis | – | 660 µM | – | haemolysis | 4%
CCCCCCCCCCCCCCCCCC(=O)N[C@@H](CCCCN)C(=O)N[C@@H](CCCCN)C(=O)N(CCCCN)CC(=O)N[C@@H](CCCCN)C(=O)N[C@@H](CCCCN)C(N)=O | – | Galleria mellonella larvae | 50 mg/kg, 4 d | – | survival | 100%
CC(C)[C@H](NC(=O)CNC(=O)[C@H](CCC(N)=O)NC(=O)[C@H](C)N)C(=O)O | – | healthy human | intravenous, 10 mg/kg single dose | baseline: subjects | definitely drug-related adverse events | 0%
CC(C)C[C@@H](N)C(=O)NCC(=O)N[C@H](C)C(=O)N[C@H](CO)C(=O)N[C@H](Cc1c[nH]c2ccccc12)C(=O)N[C@H](Cc1c[nH]cn1)C(=O)N[C@H](CCCNC(=N)N)C(=O)N1CCC[C@@H]1C(=O)N[C@H](CC(=O)O)C(=O)N[C@H](CCCCN)C(=O)N[C@H](CS)C(=O)N[C@H](CS)C(=O)N[C@H](CC(C)C)C(=O)NCC(=O)N[C@H](Cc1ccc(O)cc1)C(=O)N[C@H](CCC(N)=O)C(=O)N[C@H](CCCCN)C(=O)N[C@H](CCCNC(=N)N)C(=O)N1CCC[C@@H]1C(=O)N[C@H](CC(C)C)C(=O)N1CCC[C@@H]1C(N)=O | LC-MS/MS | rat plasma | 25 ng/mL, 30 days, -80 °C, storage | baseline: nominal | accuracy | 99.1%
OC1(C(F)(F)F)CCN(c2nc(Nc3ccnc(C(F)(F)F)c3)nc(-c3cccc(C(F)(F)F)n3)n2)C1 (stereo not shown) | – | monkey, both sexes | oral | – | cardiovascular NOAEL | 50 mg/kg

A few entries again:
SMILES | test | system | setting | scale | quantity | result
COC(=O)C[C@](O)(CCCC(C)(C)OC(C)=O)C(=O)O[C@@H]1C(OC)=C[C@]23CCCN2CCc2cc4c(cc2[C@H]13)OCO4 | – | CD1 mouse, kidney | oral, 1 mg/kg, 0.5 h | – | tissue concentration | 138 ng/mL
